# Earlier results, collected from citations in different studies.
# ± gives the spread as reported.
# UniProt P00367, sequence (whole entry, unmodified, looked up): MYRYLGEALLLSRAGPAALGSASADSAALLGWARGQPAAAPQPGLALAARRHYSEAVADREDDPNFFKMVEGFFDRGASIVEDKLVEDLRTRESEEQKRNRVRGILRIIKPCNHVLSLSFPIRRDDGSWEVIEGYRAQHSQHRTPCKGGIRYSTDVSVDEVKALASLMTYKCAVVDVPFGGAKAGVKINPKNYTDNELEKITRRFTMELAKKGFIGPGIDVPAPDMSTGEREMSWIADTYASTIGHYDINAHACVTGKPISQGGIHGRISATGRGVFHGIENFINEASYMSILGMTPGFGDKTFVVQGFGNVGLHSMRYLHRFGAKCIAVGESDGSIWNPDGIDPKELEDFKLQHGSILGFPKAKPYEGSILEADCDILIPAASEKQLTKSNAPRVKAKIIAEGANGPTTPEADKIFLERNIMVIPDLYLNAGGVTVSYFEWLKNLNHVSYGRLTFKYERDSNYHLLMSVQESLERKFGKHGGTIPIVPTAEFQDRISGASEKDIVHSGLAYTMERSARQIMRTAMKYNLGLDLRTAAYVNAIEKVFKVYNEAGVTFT
# UniProt Q6W5P4, sequence (whole entry, unmodified, looked up): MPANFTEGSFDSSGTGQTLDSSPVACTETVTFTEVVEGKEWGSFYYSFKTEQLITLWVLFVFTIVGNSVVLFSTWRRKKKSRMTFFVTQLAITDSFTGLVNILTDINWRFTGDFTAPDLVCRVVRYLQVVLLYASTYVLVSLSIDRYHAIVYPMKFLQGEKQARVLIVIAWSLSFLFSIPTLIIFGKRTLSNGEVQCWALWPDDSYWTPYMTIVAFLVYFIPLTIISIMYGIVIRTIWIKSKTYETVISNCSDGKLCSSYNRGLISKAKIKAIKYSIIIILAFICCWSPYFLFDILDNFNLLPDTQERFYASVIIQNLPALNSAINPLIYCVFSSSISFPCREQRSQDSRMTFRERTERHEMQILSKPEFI
# UniProt P23270, sequence (whole entry, looked up): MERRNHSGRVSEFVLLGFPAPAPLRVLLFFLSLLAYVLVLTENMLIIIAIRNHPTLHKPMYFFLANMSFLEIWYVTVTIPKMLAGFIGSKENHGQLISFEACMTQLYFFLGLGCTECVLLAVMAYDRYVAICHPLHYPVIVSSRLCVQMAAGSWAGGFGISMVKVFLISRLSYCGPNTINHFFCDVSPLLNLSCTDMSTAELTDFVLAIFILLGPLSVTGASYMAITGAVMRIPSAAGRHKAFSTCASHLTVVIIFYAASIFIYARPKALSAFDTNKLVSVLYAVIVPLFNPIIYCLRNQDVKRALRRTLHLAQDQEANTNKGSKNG
# UniProt P63079, sequence (whole entry, looked up): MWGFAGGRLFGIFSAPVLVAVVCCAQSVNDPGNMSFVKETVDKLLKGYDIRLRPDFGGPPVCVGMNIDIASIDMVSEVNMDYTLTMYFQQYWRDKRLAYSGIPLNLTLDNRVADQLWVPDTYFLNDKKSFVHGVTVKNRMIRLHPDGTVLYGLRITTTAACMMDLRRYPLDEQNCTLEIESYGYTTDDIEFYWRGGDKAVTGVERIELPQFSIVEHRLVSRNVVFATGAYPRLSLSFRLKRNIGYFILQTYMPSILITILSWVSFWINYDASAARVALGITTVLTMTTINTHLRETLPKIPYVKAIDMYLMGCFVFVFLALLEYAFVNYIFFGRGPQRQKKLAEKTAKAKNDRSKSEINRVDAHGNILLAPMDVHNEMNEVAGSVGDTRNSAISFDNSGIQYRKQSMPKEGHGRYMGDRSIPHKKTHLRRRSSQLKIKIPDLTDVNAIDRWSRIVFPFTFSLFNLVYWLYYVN
# UniProt Q15077, sequence (whole entry, looked up): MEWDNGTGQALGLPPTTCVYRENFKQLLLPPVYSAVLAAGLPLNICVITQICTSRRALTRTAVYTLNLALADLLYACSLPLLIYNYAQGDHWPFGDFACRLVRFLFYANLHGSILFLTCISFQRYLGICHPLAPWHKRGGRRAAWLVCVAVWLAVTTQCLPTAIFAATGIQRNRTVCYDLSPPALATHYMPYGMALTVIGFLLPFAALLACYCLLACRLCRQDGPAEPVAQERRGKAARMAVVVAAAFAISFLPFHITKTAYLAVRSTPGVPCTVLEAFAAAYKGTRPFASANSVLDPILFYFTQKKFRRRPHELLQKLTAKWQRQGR
# UniProt P62813, sequence (whole entry, looked up): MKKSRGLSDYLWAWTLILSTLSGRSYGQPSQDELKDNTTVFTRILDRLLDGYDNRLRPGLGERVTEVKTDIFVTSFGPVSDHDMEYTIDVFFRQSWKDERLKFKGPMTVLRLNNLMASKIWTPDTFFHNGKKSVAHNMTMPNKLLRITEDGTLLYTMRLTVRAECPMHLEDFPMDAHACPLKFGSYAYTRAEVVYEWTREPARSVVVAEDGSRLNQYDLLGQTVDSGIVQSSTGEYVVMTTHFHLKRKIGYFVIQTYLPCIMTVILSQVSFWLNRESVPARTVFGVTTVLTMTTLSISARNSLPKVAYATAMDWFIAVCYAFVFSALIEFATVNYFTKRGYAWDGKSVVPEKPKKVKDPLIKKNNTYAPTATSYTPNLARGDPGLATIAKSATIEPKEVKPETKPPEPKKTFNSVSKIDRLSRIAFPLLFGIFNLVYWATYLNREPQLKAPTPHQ
# UniProt P29275, sequence (whole entry, looked up): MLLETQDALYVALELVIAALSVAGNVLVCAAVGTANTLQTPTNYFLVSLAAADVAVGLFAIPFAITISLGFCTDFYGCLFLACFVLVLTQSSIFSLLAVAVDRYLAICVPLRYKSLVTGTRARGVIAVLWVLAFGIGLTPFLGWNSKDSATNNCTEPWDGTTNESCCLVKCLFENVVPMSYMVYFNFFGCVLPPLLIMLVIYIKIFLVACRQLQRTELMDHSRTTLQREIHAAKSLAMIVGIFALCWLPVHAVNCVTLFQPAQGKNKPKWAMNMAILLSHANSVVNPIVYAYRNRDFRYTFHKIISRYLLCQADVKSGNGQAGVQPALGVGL
# UniProt P49116, sequence (whole entry, looked up): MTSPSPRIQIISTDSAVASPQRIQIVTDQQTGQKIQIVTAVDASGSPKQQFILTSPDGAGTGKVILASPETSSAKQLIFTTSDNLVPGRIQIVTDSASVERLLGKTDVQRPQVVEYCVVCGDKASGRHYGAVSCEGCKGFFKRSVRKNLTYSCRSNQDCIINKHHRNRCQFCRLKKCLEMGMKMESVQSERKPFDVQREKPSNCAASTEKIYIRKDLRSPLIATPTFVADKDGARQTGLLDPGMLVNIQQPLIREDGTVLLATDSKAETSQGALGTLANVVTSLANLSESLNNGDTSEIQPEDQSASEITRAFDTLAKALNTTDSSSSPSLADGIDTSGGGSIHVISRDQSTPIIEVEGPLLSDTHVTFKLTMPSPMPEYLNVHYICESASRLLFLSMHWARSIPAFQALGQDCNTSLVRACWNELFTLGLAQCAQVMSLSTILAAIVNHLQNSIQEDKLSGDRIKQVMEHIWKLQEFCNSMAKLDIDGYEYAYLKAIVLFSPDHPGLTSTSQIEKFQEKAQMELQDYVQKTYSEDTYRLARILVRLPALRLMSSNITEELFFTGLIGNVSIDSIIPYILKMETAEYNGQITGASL
# UniProt P13569, sequence (whole entry, looked up): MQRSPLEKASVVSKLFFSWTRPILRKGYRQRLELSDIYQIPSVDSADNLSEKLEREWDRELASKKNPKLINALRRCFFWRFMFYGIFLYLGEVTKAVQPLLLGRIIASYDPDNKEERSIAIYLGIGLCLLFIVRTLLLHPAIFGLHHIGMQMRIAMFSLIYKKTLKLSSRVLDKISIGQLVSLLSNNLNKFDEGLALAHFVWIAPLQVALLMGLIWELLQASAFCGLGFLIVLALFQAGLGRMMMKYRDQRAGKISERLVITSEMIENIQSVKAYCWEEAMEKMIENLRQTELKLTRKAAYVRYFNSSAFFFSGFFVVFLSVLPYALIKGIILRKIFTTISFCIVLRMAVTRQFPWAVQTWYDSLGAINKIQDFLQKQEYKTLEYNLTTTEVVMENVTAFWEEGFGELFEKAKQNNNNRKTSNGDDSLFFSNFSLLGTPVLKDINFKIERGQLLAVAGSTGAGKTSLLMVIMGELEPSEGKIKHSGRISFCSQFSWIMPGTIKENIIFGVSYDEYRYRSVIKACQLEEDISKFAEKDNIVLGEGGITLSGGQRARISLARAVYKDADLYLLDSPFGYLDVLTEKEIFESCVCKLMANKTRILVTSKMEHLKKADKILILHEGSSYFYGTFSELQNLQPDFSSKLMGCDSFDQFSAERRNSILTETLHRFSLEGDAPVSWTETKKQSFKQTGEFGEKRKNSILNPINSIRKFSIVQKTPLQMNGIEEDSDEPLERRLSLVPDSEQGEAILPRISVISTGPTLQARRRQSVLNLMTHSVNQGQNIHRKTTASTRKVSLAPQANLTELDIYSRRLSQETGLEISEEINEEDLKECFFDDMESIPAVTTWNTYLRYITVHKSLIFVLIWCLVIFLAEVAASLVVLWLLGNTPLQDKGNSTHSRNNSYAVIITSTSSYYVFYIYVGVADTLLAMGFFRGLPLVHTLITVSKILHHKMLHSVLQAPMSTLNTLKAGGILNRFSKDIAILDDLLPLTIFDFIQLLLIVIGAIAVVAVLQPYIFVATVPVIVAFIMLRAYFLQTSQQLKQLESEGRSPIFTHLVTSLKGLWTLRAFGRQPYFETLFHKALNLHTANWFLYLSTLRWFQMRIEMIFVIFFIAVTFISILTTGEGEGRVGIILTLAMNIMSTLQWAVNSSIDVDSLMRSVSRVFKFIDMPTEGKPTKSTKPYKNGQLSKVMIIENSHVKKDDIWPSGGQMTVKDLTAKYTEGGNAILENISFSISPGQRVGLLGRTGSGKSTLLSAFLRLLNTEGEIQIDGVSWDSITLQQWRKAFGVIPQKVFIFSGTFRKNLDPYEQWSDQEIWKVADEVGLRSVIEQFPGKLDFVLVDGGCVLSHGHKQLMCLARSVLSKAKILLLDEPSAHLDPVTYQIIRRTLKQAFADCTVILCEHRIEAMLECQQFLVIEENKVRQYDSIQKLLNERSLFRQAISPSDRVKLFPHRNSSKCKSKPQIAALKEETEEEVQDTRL
Compound,target,observed,mode,cells,notes,with,EC50
Nc1ncnc2c1ncn2[C@@H]1O[C@H](COP(=O)(O)OP(=O)(O)O)[C@@H](O)[C@H]1O,"P2Y purinoceptor 1 (P2RY1, Homo sapiens, UniProt P47900)",phospholipase C activation,agonist,1321N1,,,0.66 µM
O=c1ccn([C@H]2[C@H](O)[C@H](O)[C@@]3(COP(=O)(O)OP(=O)(O)O)C[C@H]23)c(=O)[nH]1,"P2Y purinoceptor 6 (P2RY6, Homo sapiens, UniProt Q15077)",PLC stimulation,agonist,1321N1 cells,,,> 10 µM
COc1ccc2[nH]cc3c(=O)n(-c4ccc(C#N)cc4)nc-3c2c1,"Gamma-aminobutyric acid receptor subunit alpha-1/beta-3 (Gabra1/Gabrb3, Rattus norvegicus, UniProt P62813+P63079)",,positive allosteric modulator,,,GABA EC3,1 µM
CC1(C)Cc2c(sc(NC(=O)c3ccn[nH]3)c2C(N)=O)C(C)(C)O1,"CFTR (Homo sapiens, UniProt P13569)",,potentiator,,open probability reduced 20-fold to 0.02,,1.7 µM
CCn1nnc([C@H]2O[C@@H](n3cnc4c(NCc5cccc(I)c5)nc(Cl)nc43)[C@H](O)[C@@H]2O)n1,"ADORA2B (Homo sapiens, UniProt P29275)",adenylyl cyclase activation,agonist,,,,0.834 µM
Nc1sc2c(c1C(=O)c1ccc(Cl)cc1)CCCC2,adenosine A1 receptor,,positive allosteric modulator,,,,6.8 µM
CC(C)C[C@H](N)C(=O)O,"GLUD1 (Homo sapiens, UniProt P00367, S501P)",enzyme activity,activator,,"mutant enzyme, reductive amination",,610 µM
CC1=C(/C=C/C(C)=C/C=C/C(C)=C/C(=O)O)C(C)(C)CCC1,"Nuclear receptor subfamily 2 group C member 2 (Homo sapiens, UniProt P49116)",receptor activation,agonist,,,,23.8 µM
Cc1ccc(NC(=O)/C=C/c2ccco2)cc1,nicotinic acetylcholine receptor alpha7,,agonist,,,,5 to 12 µM
C=C[C@@]1(C)CC(=O)[C@]2(O)[C@@]3(C)[C@@H](O)CCC(C)(C)[C@@H]3[C@H](O)[C@H](OC(C)=O)[C@@]2(C)O1,adenylyl cyclase subunits,subunit interaction,stabilizer,,,,10 µM
CC(C)[C@H](NC(=O)CNC(=O)[C@H](CC(N)=O)NC(=O)[C@H](CCCNC(=N)N)NC(=O)[C@H](Cc1ccccc1)NC(=O)[C@@H](N)CO)C(N)=O,"NPSR1 (Homo sapiens, UniProt Q6W5P4, N107I)",calcium mobilization,agonist,,receptor variant,,0.0007 ± 0.0002 µM
CCCCCC=O,"Olfactory receptor 226 (Olr226, Rattus norvegicus, UniProt P23270)",,agonist,rat olfactory neurons expressing OR-I7,,,1740 ± 440 µM
[Ca+2],cGMP-gated channel (rod),shift in cGMP K1/2,modulator,,,calmodulin,0.45 µM
